Measurements collected from several papers.
Each numbered part is a random draw from the data of one study; scales do not carry over between parts.
Sequence of UniProt P21127 (whole entry, looked up): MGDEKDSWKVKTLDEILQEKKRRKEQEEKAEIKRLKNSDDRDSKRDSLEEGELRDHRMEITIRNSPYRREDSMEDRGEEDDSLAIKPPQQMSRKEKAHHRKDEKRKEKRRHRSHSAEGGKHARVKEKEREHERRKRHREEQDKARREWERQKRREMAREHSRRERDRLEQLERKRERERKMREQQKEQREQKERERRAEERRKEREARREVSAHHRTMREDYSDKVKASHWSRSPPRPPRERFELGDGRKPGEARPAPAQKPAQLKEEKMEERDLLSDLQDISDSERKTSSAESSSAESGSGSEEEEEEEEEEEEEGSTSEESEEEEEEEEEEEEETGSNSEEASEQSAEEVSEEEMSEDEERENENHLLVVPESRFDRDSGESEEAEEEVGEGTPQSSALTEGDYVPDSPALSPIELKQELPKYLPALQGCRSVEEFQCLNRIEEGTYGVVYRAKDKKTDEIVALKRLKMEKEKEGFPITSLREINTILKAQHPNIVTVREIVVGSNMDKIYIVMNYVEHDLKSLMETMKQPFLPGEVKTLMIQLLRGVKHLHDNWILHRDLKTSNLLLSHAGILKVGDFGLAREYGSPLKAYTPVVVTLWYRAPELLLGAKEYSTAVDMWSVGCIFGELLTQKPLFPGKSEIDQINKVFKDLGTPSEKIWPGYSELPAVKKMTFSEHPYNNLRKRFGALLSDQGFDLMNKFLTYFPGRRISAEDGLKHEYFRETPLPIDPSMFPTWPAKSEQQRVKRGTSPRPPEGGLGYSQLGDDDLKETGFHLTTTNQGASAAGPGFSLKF

Sample 1 — technique: Spec-seq; form: double-stranded DNA, one strand shown; matrix: in vitro; tested at: not given; setting: whole probe, mean of replicates; relative to: not given; direction: lower = stronger binding; measurement: relative binding energy; shared flanks, not repeated: GAGTCGTCTCGTCAGCAC … CCGTAGAGCACTCAGGTC
Target: Transcription factor SOX-2, HMG box (Sox2, Mus musculus, UniProt P48432, residues 41-119)
Sequence of UniProt P48432 (41-119, looked up): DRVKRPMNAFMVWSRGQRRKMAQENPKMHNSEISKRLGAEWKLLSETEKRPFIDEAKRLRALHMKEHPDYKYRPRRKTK
Sequence = CATGGGG; result = 0.117 ln ratio
Sequence = CTAAGTT; result = 0.648 ln ratio
Sequence = CATGTAC; result = 0.28 ln ratio
Sequence = GCTCGTT; result = 1.15 ln ratio
Sequence = CATAAGT; result = -0.104 ln ratio
Sequence = AGGTGTT; result = 0.673 ln ratio
Sequence = GGTGGTT; result = 1.37 ln ratio
Sequence = ATTCGTT; result = 0.0563 ln ratio

Sample 2 — technique: protein binding microarray; form: double-stranded DNA, one strand shown; matrix: in vitro; tested at: not given; relative to: not given; direction: higher = stronger binding; measurement: E-score
Target: Histone acetyltransferase KAT6A, winged helix 2, GST fusion (KAT6A, Homo sapiens, UniProt Q92794, residues 85-181)
Setting: 8-mer, flanks averaged, mean of 2 arrays, mostly near background
Construct (chain): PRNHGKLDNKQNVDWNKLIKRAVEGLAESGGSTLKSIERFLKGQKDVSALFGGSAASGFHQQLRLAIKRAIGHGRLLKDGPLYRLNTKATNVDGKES
Sequence = GTCGGCCA; result = 0.056
Sequence = TGCACCAA; result = 0.0602
Sequence = ATGAGAGC; result = 0.0618
Sequence = ACGGATAG; result = 0.0413
Sequence = GATAATTA; result = 0.0626
Sequence = AGGAGAAA; result = -0.0826
Sequence = AATCGATG; result = 0.0115
Sequence = CATAGGTC; result = -0.0178

Sample 3 — technique: RNA Bind-n-Seq; form: RNA; matrix: in vitro; tested at: not given; relative to: input RNA pool; direction: higher = stronger binding; measurement: bound/input enrichment
Target: RING finger protein unkempt homolog, zinc fingers 1-6, GST-SBP tag (UNK, Homo sapiens, UniProt Q9C0B0, residues 30-357)
Setting: RNA with constant flanks, human and mouse sites, ends assumed
Shared flanks, not repeated: GGGAGUUCUACAGUCCGACGAUC … CAACAGAGGAUUGAGCAUCA
Target sequence (chain): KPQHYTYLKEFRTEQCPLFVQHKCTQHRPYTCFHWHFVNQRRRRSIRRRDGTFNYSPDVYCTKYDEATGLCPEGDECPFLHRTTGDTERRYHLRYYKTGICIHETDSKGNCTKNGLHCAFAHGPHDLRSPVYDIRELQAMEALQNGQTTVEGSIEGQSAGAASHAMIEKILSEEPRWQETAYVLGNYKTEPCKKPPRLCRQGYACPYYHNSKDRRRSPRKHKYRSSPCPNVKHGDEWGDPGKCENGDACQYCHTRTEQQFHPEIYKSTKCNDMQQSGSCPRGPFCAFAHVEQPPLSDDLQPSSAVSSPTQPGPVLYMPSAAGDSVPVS
Sequence = UUGUAGAAACUGCCCCAGGACUUGGCUUUGUGGGAAUUUGUACACCCCACCUCCCUUUUUGACAAAAUUAUCUGAACUCAAUAUCUAGUGCAUAAAGAAUUUUUGUCAAAUGGGUACAUU; result = 0.788 ratio
Sequence = GGCACAUGGGAAGAGAAAUCAGAUGAAAUUUCCUUUGCUGACUUCAAGUUCUCAGUCACUCAUCAUUAUCUUGUACAAGAGUCCACUGAUAAAGAAGGAAAGGAUGAGUUAUUAGAGGAU; result = 0.378 ratio
Sequence = UGGGCGAACCACGUCUUCCUCGGGUGCCGAUACCCUCAAAAAGUUAUGGAUAAAAUACUUAGUAUGGCUGAAGGCAUCAAAGUGACAGAUGCUCCAACCUAUACAACAAGAGAUGAACUG; result = 0.0665 ratio
Sequence = AACCAAGGAACAGUGAUCCAUUUUAACAACCCUAAAGUUCAGGCAUCCCUGGCAGCAAACACCUUCACCAUUACAGGCCACGCUGAGACAAAGCAGCUGACAGAAAUGCUUCCCAGCAUC; result = 0.438 ratio
Sequence = GGAGGCUAUGGAGGCUAUGAUGAUUACAAUGGCUAUAAUGAUGGCUAUGGAUUUGGGUCAGAUAGAUUUGGAAGAGACCUCAAUUACUGUUUUUCAGGAAUGUCUGAUCACAGAUACGGG; result = 0.439 ratio
Sequence = UUGGGGUAACGUGCACUGUAAGACGUAUGUAACAUGAUGUUAACUUUGUGGUCUAAAGUGUUUAGCUGUCAAGCCGGAUGCCUAAGUAGACCAAAUCUUGUUAUUGAAGUGUUCUGAGCU; result = 0.138 ratio
Sequence = GAAGAAGGCUGCUUUAUGUUUAUUUUUCAAGACUUUAAAAAUAUUUUUUGGUUGUAUUGCACUAGGAAAUCUCUCCCACCUCUCCCUUUUCUCUUUCUUUCCCUAUACAAAAUAAAAGGC; result = 0.966 ratio
Sequence = UAAAUUAGGGCUGCCGUUUUCUGUUUCUCCCUGGGCUGCGGAAAGCCAGAAGAUUUUAUCUAGCUUAUACAAGGCUGCUGGUGUUCCCUCUUUUUUUCCACGAGGGUGUUUUUGGCUGCA; result = 0.745 ratio

Single results of other studies
Structure (SMILES) = CO[C@@H](C)c1c(Nc2ccc([C@@H](N(C)C(=O)C3CCS(=O)(=O)CC3)C(F)(F)F)cc2)cnc2cc(Cl)nn12; target = Cyclin-dependent kinase 11B (CDK11B, Homo sapiens, UniProt P21127); test = cell-free assay, competition with immobilised ligand; setting = 1 µM; measurement = remaining binding; result = 100%

A few entries again (sample 1):
Sequence = CATAAGT; result = -0.104 ln ratio
Sequence = AGGTGTT; result = 0.673 ln ratio
